{"data": "Measurements from different studies", "organism": "Klebsiella pneumoniae", "note": "Compare with care: the assays were run in different laboratories."}
{"SMILES": "CC1(C)[C@H](NC(=O)/C(=N\\OC2(C(=O)O)CCCC2)c2csc(N)n2)C(=O)N1OS(=O)(=O)O", "test": "agar dilution", "test system": "2146, NDM-1", "MIC": "2 µg/mL"}
{"SMILES": "CCCCCCCC(=O)N[C@@H](CCN)C(=O)N[C@H](C(=O)N[C@@H](CCN)C(=O)N[C@H]1CCNC(=O)[C@H]([C@@H](C)O)NC(=O)[C@H](CCN)NC(=O)[C@H](CCN)NC(=O)[C@H](CCCCCC)NC(=O)[C@@H](Cc2ccccc2)NC(=O)[C@H](CCN)NC1=O)[C@@H](C)O", "test": "broth microdilution", "test system": "ATCC 13883", "MIC": "8 to 16 µg/mL"}
{"SMILES": "CC[C@H](C)[C@H](NC(=O)[C@@H](CCCNC(=N)N)NC(=O)[C@H](CCCNC(=N)N)NC(=O)CNC(=O)[C@H](Cc1c[nH]c2ccccc12)NC(=O)[C@H](CCCNC(=N)N)NC(=O)[C@@H]1CCCN1C(=O)[C@H](CCCNC(=N)N)NC(=O)[C@@H]1CCCN1C(=O)[C@H](CC(C)C)NC(=O)[C@H](Cc1ccc(O)cc1)NC(=O)[C@@H]1CCCN1C(=O)[C@@H]1CCCN1C(=O)[C@H](CCCCN)NC(=O)[C@H](CC(=O)O)NC(=O)[C@@H](N)C(C)C)C(=O)N[C@@H](Cc1ccc(O)cc1)C(=O)N[C@@H](CC(N)=O)C(=O)N[C@H](CCCNC(=N)N)C(N)=O", "test": "broth microdilution", "test system": "DSM 681", "conditions": "18 h, 37 °C, 25% MHB2", "MIC": "2 µg/mL"}
{"SMILES": "CC1(C)C(NC(=O)C(=NOCC(=O)N2CC3CCCC3C2C(=O)O)c2csc(N)n2)C(=O)N1OS(=O)(=O)O (stereo not drawn)", "test": "agar dilution", "test system": "2146, NDM-1", "MIC": "> 64 µg/mL"}
{"SMILES": "CC[C@H](C)[C@H](NC(=O)[C@@H](CCCNC(=N)N)NC(=O)[C@H](CCCNC(=N)N)NC(=O)[C@@H]1CCCN1C(=O)[C@@H]1CCCN1C(=O)[C@H](CCCNC(=N)N)NC(=O)[C@@H]1CCCN1C(=O)[C@H](CCCNC(=N)N)NC(=O)[C@@H]1CCCN1C(=O)[C@H](CC(C)C)NC(=O)[C@H](Cc1c[nH]cn1)NC(=O)[C@@H]1CCCN1C(=O)[C@@H]1CCCN1C(=O)[C@H](CCCCN)NC(=O)[C@H](CC(=O)O)NC(=O)[C@@H](N)C(C)C)C(=O)N[C@@H](Cc1ccc(O)cc1)C(=O)N[C@@H](CC(N)=O)C(=O)N[C@H](CCCNC(=N)N)C(N)=O", "test": "broth microdilution", "test system": "DSM 681", "conditions": "18 h, 37 °C, 25% MHB2", "MIC": "4 µg/mL"}
{"SMILES": "N=C(N)NCCC[C@@H]1NC(=O)[C@H](CCCNC(=N)N)NC(=O)[C@@H](C(c2ccccc2)c2ccccc2)NC(=O)[C@H](Cc2c[nH]c3ccccc23)NC(=O)[C@@H](C(c2ccccc2)c2ccccc2)NC(=O)[C@@H](CCCNC(=N)N)NC(=O)[C@@H](CCCNC(=N)N)NC1=O", "test system": "1188718, multidrug-resistant", "MIC": "> 64 µg/mL"}
{"SMILES": "CC[C@H](C)[C@H](NC(=O)[C@H](C)NC(=O)[C@@H](NC(=O)[C@H](CC(=O)O)NC(=O)[C@H](CCCCN)NC(=O)[C@H](CO)NC(=O)[C@@H](NC(=O)[C@H](CC(N)=O)NC(=O)[C@H](C)NC(=O)[C@@H](NC(=O)[C@H](CCC(=O)O)NC(=O)[C@H](CCCCN)NC(=O)[C@@H](NC(=O)[C@@H](NC(=O)[C@H](Cc1c[nH]cn1)NC(=O)[C@H](CCCCN)NC(=O)[C@@H](NC(=O)[C@H](CCCCN)NC(=O)[C@H](CCCCN)NC(=O)[C@@H](NC(=O)[C@H](CC(C)C)NC(=O)[C@H](CCCCN)NC(=O)[C@H](CC(N)=O)NC(=O)[C@H](Cc1ccccc1)NC(=O)[C@H](CCCNC(=N)N)NC(=O)[C@H](CCCCN)NC(=O)[C@H](CCCNC(=N)N)NC(=O)[C@H](Cc1ccccc1)NC(=O)CN)C(C)C)C(C)C)[C@@H](C)O)[C@@H](C)CC)[C@@H](C)O)C(C)C)C(C)C)C(=O)N[C@H](C(=O)N[C@@H](C)C(=O)NCC(=O)N[C@@H](CO)C(=O)NCC(=O)N[C@H](C(=O)N[C@@H](C)C(=O)N[C@H](C(=O)NCC(=O)N[C@@H](C)C(=O)N[C@@H](C)C(=O)N[C@@H](CCSC)C(N)=O)C(C)C)C(C)C)C(C)C", "test": "broth microdilution", "test system": "RKI 93/10, CAMHB with 10% mouse serum", "conditions": "150 mM NaCl", "MIC": "0.5 µg/mL"}
{"SMILES": "COc1ccc2ccc(O)c(/C=N/[C@H]3CCCC[C@H]3/N=C/c3c(C)cccc3O)c2c1", "test": "bacterial growth, broth microdilution", "test system": "carbapenem-resistant", "MIC": "> 40 µM"}
{"SMILES": "CCn1ccn(CC)c1=[Se]", "test": "broth microdilution", "test system": "carbapenem-resistant BAA-1705", "conditions": "24 h", "MIC": "> 40 µM"}
